Assay results of several laboratories.
Protocols differ between the studies behind these lines. ± gives the spread as reported.
Cell line: SH-SY5Y

Cc1nc(-c2ccc(Cl)cc2)nc2sc3c(=O)n(CCN4CCOCC4)cnc3c12 — neuroprotection (MTT; 25 µM, together with: L-glutamate 100 µM): 67.8 ± 0.013%
O=c1c(Nc2ccccc2)c(NC2CCN(Cc3ccccc3)CC2)c1=O — cell survival (neuroprotection, MTT; 12.5 µM, 24 h pretreatment, together with: H2O2 650 µM for 4 h): 62.6%
COc1ccc([C@@H]2N=NC(NCCc3c[nH]c4ccc(C)cc34)=NC2=O)cc1 — neuroprotection (MTT; 25 µM, together with: L-glutamate 100 µM): 26.3 ± 0.077%
COc1ccc(Nc2c3c(nc4ccccc24)CCCC3)nc1 — viability (MTT; 50 µM, 1 h pretreatment, 10% FBS, together with: H2O2): 69 ± 2.55%
C=CCn1nnc2c(NCc3ccc(C)s3)nc(N[C@H](CC)CO)nc21 — cell survival reduction (MTS; 100 µM, 24 h): ~50%
O=C1C=C(OCCCCCCn2cc(CNc3ccc4nccnc4c3)nn2)C(=O)c2ccccc21 — GI50 (cell growth or viability, SRB; 48 h): > 100 µM
Cc1ccnc(Nc2c3c(nc4ccccc24)CCC(C)C3)c1 (centres unmarked) — viability (MTT; 50 µM, 1 h pretreatment, 10% FBS, together with: H2O2): 58 ± 4.35%
Nc1ccc(CCNc2c(NC3CCN(Cc4ccccc4)CC3)c(=O)c2=O)cc1 — cell survival (neuroprotection, MTT; 12.5 µM, 24 h pretreatment, together with: H2O2 650 µM for 4 h): 60.3%
Cc1nc2ccc(NCc3cn(CCCOC4=CC(=O)c5ccccc5C4=O)nn3)cc2nc1C — GI50 (cell growth or viability, SRB; 48 h): 31.2 µM
COc1ccc(Nc2c(NC3CCN(Cc4ccccc4)CC3)c(=O)c2=O)cc1 — cell survival (neuroprotection, MTT; 12.5 µM, 24 h pretreatment, together with: H2O2 650 µM for 4 h): 60.6%
FC(F)(F)c1cccc(Nc2c3c(nc4ccccc24)CCCC3)c1 — viability (MTT; 50 µM, 1 h pretreatment, 10% FBS, together with: H2O2): 45.2 ± 2.74%
Cc1nc2ccc(NCc3cn(CCCCCCCCOC4=CC(=O)c5ccccc5C4=O)nn3)cc2nc1C — GI50 (cell growth or viability, SRB; 48 h): > 100 µM
CC[C@H](CO)Nc1nc(NCc2ccc(C)s2)n2ncc(C(C)C)c2n1 — lowest toxic concentration (cell survival, MTS; 24 h): ≥ 10 µM
COc1ccc(Nc2c3c(nc4ccc(Cl)cc24)CCCC3)nc1 — viability (MTT; 50 µM, 1 h pretreatment, 10% FBS, together with: H2O2): 46.8 ± 2.66%
O=c1c(NCc2ccccc2)c(NC2CCN(Cc3ccccc3)CC2)c1=O — cell survival (neuroprotection, MTT; 12.5 µM, 24 h pretreatment, together with: H2O2 650 µM for 4 h): 57.4%
Cc1cccnc1Nc1c2c(nc3ccccc13)CCCC2 — viability (MTT; 50 µM, 1 h pretreatment, 10% FBS, together with: H2O2): 72.5 ± 3.23%
Cc1nc2ccc(NCc3cn(CCCCCCOC4=CC(=O)c5ccccc5C4=O)nn3)cc2nc1C — GI50 (cell growth or viability, SRB; 48 h): > 100 µM

For quick reference, copied from above:
C=CCn1nnc2c(NCc3ccc(C)s3)nc(N[C@H](CC)CO)nc21 — cell survival reduction (MTS; 100 µM, 24 h): ~50%
